Published values gathered from unrelated publications.
Each numbered part is a random draw from the data of one study; scales do not carry over between parts. Positions count from the first letter of the parent shown.

Sample 1 — technique: RNAcompete; molecule type: RNA; sample: in vitro; tested at: 20 nM; notes: 7-mer, probes averaged, single round; baseline: mean of 7-mers; direction: higher = stronger binding; endpoint: 7-mer Z-score
Target: PABPC1L2, full length, GST fusion (mouse, UniProt A0ABA7IW68)
Residues (chain): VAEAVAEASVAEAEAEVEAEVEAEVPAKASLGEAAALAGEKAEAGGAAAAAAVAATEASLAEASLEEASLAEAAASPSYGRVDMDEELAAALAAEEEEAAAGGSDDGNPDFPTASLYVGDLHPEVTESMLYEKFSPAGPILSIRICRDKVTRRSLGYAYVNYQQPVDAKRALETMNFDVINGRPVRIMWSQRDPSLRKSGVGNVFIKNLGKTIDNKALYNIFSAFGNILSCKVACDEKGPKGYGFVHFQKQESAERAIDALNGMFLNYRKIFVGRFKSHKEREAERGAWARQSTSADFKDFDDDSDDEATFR
CUCACCG: -0.293
GGUCAAA: 0.258
GACUUGA: -0.0772
UCAGCCG: -0.474
GAGUUAU: -0.208
UGACAAC: -0.115
CUCCUGU: -0.403
CGUGAUA: -0.0736
GCUACUA: -0.139
GAUAAGC: -0.115
CGAUACU: -0.0808
UAUCUUG: -0.309
CGUGGAA: 0.0823
AGAGCGU: -0.278
GACUAGA: 0.146
ACCAUCU: -0.267
AUUGGAU: 0.0116
AACGGGU: 0.307
CAAACAG: 1.51
GGAAGGA: 0.207
UCAUUUU: -0.289

Sample 2 — technique: universal PBM; molecule type: double-stranded DNA, one strand shown; sample: in vitro; tested at: not given; direction: higher = stronger binding; endpoint: E-score
Target: Sal-like protein 4, full length isoform B (SALL4, Homo sapiens, UniProt Q9UJQ4-2, residues 1-616)
Notes: 8-mer, flanks averaged, mean of replicates
GACCTCAC: -0.118
CCACGACC: -0.214
GCTTAAGC: 0.0959
GTGTAATA: 0.325
GGTAATCA: 0.0524
GACATGCA: 0.0715
AGAAGCAT: 0.121
GAGTCACC: -0.257
CCCTGTTA: 0.0866
GAGTCATA: 0.246
CGGGATAC: -0.31
CCGTAGCG: -0.238
TCCGAGAA: 0.0265
CCTAGACG: -0.211
AAAAAAAA: 0.34
AATATTGC: 0.425
CGGGACCA: -0.37
CAGCAGGG: -0.236
CAGTTGCC: -0.105
CTCCCATC: -0.00072
CGATAGGC: 0.11
GGGAGGAC: -0.224
GCAACAAA: 0.183
CGCCCTAG: -0.288

Sample 3 — technique: RNA Bind-n-Seq; molecule type: RNA; sample: in vitro; tested at: 1 µM; notes: whole 134-nt RNA, ends assumed; together with: 150 mM KCl; baseline: input library; direction: higher = stronger binding; endpoint: log2 enrichment
Target: Ras GTPase-activating protein-binding protein 1, C-terminal RGG region (G3BP1, Homo sapiens, UniProt Q13283)
Chain of UniProt Q13283 (whole entry, looked up): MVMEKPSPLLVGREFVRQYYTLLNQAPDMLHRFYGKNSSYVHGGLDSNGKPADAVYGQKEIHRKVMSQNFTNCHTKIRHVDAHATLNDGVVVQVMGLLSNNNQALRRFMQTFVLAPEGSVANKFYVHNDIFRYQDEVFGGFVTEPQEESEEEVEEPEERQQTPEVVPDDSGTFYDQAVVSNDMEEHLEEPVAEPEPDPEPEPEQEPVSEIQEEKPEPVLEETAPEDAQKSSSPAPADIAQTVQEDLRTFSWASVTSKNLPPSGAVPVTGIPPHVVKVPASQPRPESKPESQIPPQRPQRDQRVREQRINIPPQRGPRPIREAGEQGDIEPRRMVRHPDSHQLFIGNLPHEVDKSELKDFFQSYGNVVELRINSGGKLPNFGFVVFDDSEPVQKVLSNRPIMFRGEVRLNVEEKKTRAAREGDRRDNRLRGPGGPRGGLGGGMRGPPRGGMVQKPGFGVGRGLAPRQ
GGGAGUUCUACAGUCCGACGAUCGUCCUGUGCUACACAUCGUAUGUACCGAAUCGGGGAGGGGAAAAAGGGGAAAAAGGGGAAAGUAUUAUGUUACGCCGUUCGGAUCUGCACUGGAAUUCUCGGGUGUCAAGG: 1.38
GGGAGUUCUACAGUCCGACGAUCGUCCUGUGCUACACAUCGUAUGUACCGAAUCGGGGUGGGGUUUGGGGUUUUUUUGGGGAAAGUAUUAUGUUACGCCGUUCGGAUCUGCACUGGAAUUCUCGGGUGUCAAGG: 2.21
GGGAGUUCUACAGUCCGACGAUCACCAUGCAGGUGAGCAUCUUUGGGAAGUGGGGCAAGGGGGGGAUAGGGAGGGGGGUAACACUUUGGGAACAGGUGGUCCCAGGUCGUUUCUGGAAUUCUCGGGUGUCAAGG: -1.39
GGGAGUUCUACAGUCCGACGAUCCCUCAAGUCCUGUGCUACACAUCGUAUGUACCGAAUCGGGCGGGCGGGCGGGGAAAGUAUUAUGUUACGCCGUUCGGAUCUGCACUUCCAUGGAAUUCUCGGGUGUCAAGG: 4.22
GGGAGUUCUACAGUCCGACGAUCGUCCUGUGCUACACAUCGUAUGUACCGAAUCGGGUUUGGGUUUUUGGGUUUUUUUGGGAAAGUAUUAUGUUACGCCGUUCGGAUCUGCACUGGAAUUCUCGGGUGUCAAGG: 0.194
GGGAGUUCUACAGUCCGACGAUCCCUGUGCUACACAUCGUAUGUACCGAAUCAAAUUUUUAAAUUUUUUUAAAUUUUUUUAAAAAAGUAUUAUGUUACGCCGUUCGGAUCUGCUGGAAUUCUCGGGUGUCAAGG: -2.41
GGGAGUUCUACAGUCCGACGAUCACCGUGCAGGUGGGCAUCUUUGGGAAGUGGGGCAAGGGGGGGAUAGGGAGGGGGGUAACACUUUGGGAACAGGUGGUCCCAGGUCGUUUCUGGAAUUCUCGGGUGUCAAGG: -1.06
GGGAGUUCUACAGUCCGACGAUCCCUGUGCUACACAUCGUAUGUACCGAAUCGGGGUUUUUUUGGGUUUUUUUGGUUUUUUUGGAAAGUAUUAUGUUACGCCGUUCGGAUCUGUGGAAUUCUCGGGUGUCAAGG: -1.3
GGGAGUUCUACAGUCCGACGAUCUCAAGUCCUGUGCUACACAUCGUAUGUACCGAAUCGGCCCGGCCCGGCCCGGGGAAAGUAUUAUGUUACGCCGUUCGGAUCUGCACUUCCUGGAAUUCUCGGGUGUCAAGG: -1.54

Sample 4 — technique: RNA Bind-n-Seq; molecule type: RNA; sample: in vitro; tested at: 365 nM; baseline: no-protein control; direction: higher = stronger binding; endpoint: RBNS enrichment (R)
Target: RNA binding protein fox-1 homolog 2, RRM domain, GST-SBP tag (RBFOX2, Homo sapiens, UniProt O43251-10, residues 100-194)
Notes: natural RNA segment, single round, ends assumed
Residues (chain): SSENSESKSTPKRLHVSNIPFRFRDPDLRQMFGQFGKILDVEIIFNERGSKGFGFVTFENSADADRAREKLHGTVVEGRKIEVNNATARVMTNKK
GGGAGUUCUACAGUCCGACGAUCCAUUAAAAUGAUCCACACCUUGAACACUGCCCUCUCUAGAAGGUUGAUUUUGAUCAGCCUUUUGAAGAUGGGUGUCGUUUCCCUAACUUAUCUCACAGAAUUUUGAGUGUUGGAAUUCUCGGGUGCCAA: 0.253
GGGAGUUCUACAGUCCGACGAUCCAUCCGAGUCUUCAGGGUCACGCCCAAGUAACUGAAGGGAGGCUGACUUGGACCCACCAAGGCUUCUGAGCACACACAUCCAUGUGGCCGAGGUUUCUAGUGCUUCAUAGUGGAAUUCUCGGGUGCCAA: 0.381
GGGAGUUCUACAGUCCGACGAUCUGUCUGAGAGAGAGUGCCACACCUUGUAGGGACUGGCAGGAAACAGGUCAGGGCCUUCCCCAGAGCCAAGACAAUGCAGAGGAGGGCUCCUUAACUCAGACCAGGGCCAUUGGAAUUCUCGGGUGCCAA: 0.214
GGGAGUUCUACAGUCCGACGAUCCUGCGUAUCGCAGUGGAAUAAGACUGCACAGUUGCUGGUAGGUGAGUUUAAAGUCUUAAUCUAUGCAUUCAGAGAAAUAUUUUUAUAUGCUUUGUGUAAUUUAUAACAAGUGGAAUUCUCGGGUGCCAA: 0.618
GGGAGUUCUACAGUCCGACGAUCUGAGCAGAGAUGUACUGCAAAGUCGCCAGUCACUGCUGCAAGGUGGCCUCUGCCUGGGGCCUCCAGAAGCUGCUCCUUUACCCUCUUGGUCCCAUGGCUGAAGCUGGAGCUGGAAUUCUCGGGUGCCAA: 0.251
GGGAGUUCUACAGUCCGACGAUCUUGGAGGACUUUAUGGAAUUUAAGAAAUACAUUUUGUGUGCAUAUUGUUUCAUAGCAAGAAUUCGUUGCAAAAAUGCUUUAUUUUUGAACAAUGCUUGGAAAUAUUAUGUUGGAAUUCUCGGGUGCCAA: 0.51
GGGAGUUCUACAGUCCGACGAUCACAUUUUAUUAUGUAGCAAGAUACAUGGUGAUUUUUUUUUUUUUCAUUUAGCCUGAUUUUCCAACGUCAUUGGUGACAGGCCAAGGCCACUAUGUUAUUUCCUUUGUUCUUGGAAUUCUCGGGUGCCAA: 0.576
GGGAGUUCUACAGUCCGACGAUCGCUGGCUCUCAAACUUGAUGCUCUUGCCUCAGCCUUCCAGUGCUGAAAUUUCAGGCUGCUGCAAACAGCCAUACCUGGCAAGAGAAGUCUUCUAAUCUGGAAACCUGUGAUGGAAUUCUCGGGUGCCAA: 0.301

Sample 5 — target: CCNE1, cyclin fold, Cln2 fusion (human); technique: yeast growth competition, sequencing; sample: yeast; notes: strong parent motif; baseline: not given; direction: higher = stronger binding; endpoint: normalised enrichment score
Starting sequence: CDC25A docking peptide (human); PPHRRRLLFACSP
L7N: 0.423
P2G: 1.29
F9Y: 0.529
P2N: 1.47
P13E: 1.37
P2T: 1.86
R4A: 1.96
R6I: 1.2
R6L: 1.65
R5K F9L: 0.315
A10L: 1.27
P1C: 0.364
P13C: 1.94
F9M: 0.852
R5Q: 0.83
R4L: 1.46
F9E: 0.426
L8I: 2.22

For quick reference, copied from above (sample 5):
R6L: 1.65
P2T: 1.86
F9M: 0.852
P2G: 1.29
A10L: 1.27
R5K F9L: 0.315
P13E: 1.37
R6I: 1.2
L8I: 2.22
F9E: 0.426
L7N: 0.423
P2N: 1.47
